Measured values from different studies.
Parts stem from different laboratories: compare values within a part only. Positions count from the first letter of the parent shown.

Sample 1 — target: CCNA2, cyclin fold, Cln2 fusion (human); technique: yeast growth competition, sequencing; matrix: yeast; notes: strong parent motif; relative to: not given; direction: higher = stronger binding
Starting sequence: TICRR docking peptide (human); TKVRRNLFNQELL; partner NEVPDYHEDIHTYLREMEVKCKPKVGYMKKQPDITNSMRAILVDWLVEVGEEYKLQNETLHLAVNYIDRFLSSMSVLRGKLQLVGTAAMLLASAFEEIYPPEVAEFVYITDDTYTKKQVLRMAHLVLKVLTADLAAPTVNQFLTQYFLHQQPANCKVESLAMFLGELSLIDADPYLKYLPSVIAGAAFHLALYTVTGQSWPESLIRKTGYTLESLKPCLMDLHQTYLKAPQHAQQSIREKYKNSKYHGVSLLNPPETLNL
Variant | normalised enrichment score
AKVRRNLFNQELL [T1A] | 3.85
TKARRNLFNQELL [V3A] | 3.03
TKVRRNLFAQELL [N9A] | 5.16
TKVRRNLFNAELL [Q10A] | 3.59
TKVRANLFNQELL [R5A] | 0.858
TKVRRNLFNQEAL [L12A] | 4.74
TKVARNLFNQELL [R4A] | 2.95
TKVRKNLFNQELL [R5K] | 3.74
TKVRKNLLNQELL [R5K F8L] | 0.401

Sample 2 — target: CREB5, bZIP domain (human); technique: DHFR protein complementation; matrix: yeast; relative to: wild-type JUN-FOS pair; direction: higher = stronger binding
Notes: single substitutions, most at no-binding floor
Starting sequence: JUN, bZIP domain (human); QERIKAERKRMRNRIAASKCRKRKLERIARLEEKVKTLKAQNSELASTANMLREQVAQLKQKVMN; partner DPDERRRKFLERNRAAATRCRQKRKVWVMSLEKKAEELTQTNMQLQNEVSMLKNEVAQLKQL
Variant | binding fitness
R53H | -0.948 natural log
L59I | -0.936 natural log
T48C | -0.442 natural log
S43D | -0.123 natural log
K39Q | -0.277 natural log
V35G | -1.34 natural log
A40N | -0.324 natural log
V35H | -1.34 natural log
Q41N | -0.639 natural log
E33R | -0.459 natural log
L38M | -0.825 natural log
T37Q | -0.0612 natural log
S43V | -0.377 natural log
E33H | -0.489 natural log
S43L | -0.267 natural log
A29R | -0.323 natural log

Sample 3 — technique: RNA Bind-n-Seq; molecule type: RNA; matrix: in vitro; concentration: 365 nM; relative to: no-protein control; direction: higher = stronger binding
Target: RNA binding protein fox-1 homolog 2, RRM domain, GST-SBP tag (RBFOX2, Homo sapiens, UniProt O43251-10, residues 100-194)
Notes: natural RNA segment, single round, ends assumed
Constant ends, left off below: GGGAGUUCUACAGUCCGACGAUC … UGGAAUUCUCGGGUGCCAA
Residues (chain): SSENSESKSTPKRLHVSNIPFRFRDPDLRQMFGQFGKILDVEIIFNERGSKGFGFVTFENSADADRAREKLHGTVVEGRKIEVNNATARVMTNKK
Strand | RBNS enrichment (R)
ACAACAAAAAAGAAUGUUUUGGUAUUGGAGAAGGGAUGGUCAGUUAGCCUGUCUGUCACACGACGGAAUGGAUACUGGGCCCGGGGACCACUUUCAUACUCACGUCCUCA | 0.696
UAGAUUGUGAGUUCUUCAAGGGCAGGCUCAUCUCCUGCACAUCUUUCUACUUCUCUACAGCAGCUGUCAGUGUUUUGUACUUGUAGACACCUAAUAAAUUGAUCAUUUGC | 0.614
CUAGUUAUUAAAUGCACUAAACAAACAACUGCAUUUAAAGCAUUGGCCUUAGCAGAAGUGACUGACUUAAAGUGUUUUAGUUUCUUACUGAUGAGUGAAUUCAGUUCCCU | 0.27
CCUGCACACUGGCUUUUUUAGUCAUUUAUGGGCAAAAAGAGUUAAAGUAAAACUUUGCAAAUCCCGACCUGCCAGCGUUUCUCUGGGGAUCACGGUGUGUGUGUGCGUGC | 0.518
CAGACCACACAGACCGUCUGAAAUGCGCCCGCCUGGCGGACAGCUCCCUUCUGAAGCAGAGAAGCCUCCAUGGUCACGAAGCAGCGUUGUGCUGUGUGUCCCUCGCAAGA | 0.366
UGGGCCAGAGCCUCUCCUUGCCCUUGCUCCAUCCCGACGGUCACCGUUGGGUCCACGCCUCCACCGCCCCAUCUUGCCCCAAACGGAAAGCGCUGUAUCUGCAGUGGCAG | 0.388
GGAGAAAUCCCAAAGCAGAUUCCUUUGAUCGGGUUUCUGUUGGAGAUGGGGCUUCCCUUAGGAGCCAUAUUCAACUACAGCCUUCUAAAACCUGUGCCCUCAGCCACUUC | 0.287
CAUACAACCUAGAAAAUGUUUAAUCACAUCAUUACGUUUCUUUUAUAUAGAAGCAUAAAGAGUUGUGGAUCAGUAGCCAUUUUAGUUACUGGGGGUGGGGGGAAGGAACA | 0.341
UCUGGGAAACCAUCCUUCCAAAACGGAAUCUAUGUAGACAAUGGGACGUUAGGCAGAGAGCUCAGAUGGCCCUUUUAAGGGGGCUCCAAGAACCAACAUCACUGCUCUUU | 0.352
AGCCUCUCUGAUGUUGUCAAUGAUGUAAAUUCAGUCCCUGGUUUUUAAUUUUCUGUCUGAUGUCACAGAUCAUUGUUGCACACAAACGUGGCAUAGAAAAGAACAUGUUC | 0.56
AUGAUGGGCAGCAGGUGGCGCUGCCUUCCACCCAUGGUGAUGGAUGGUUUGGAAAGGGAAUGUUGGUGCCUUUUGUGCCACAAGUUAAGAUGCUACUGUUUUAAAGGAAA | 0.955
GCCAGCAUCCGUCCGUCCUCCACUCUCCAGCCUCUCCCCAGCCUCCUGCACUGAGCUGGCCUCACCAGUCGACUGAGGGAGCCCCUCAGCCCUGACCUUCUCCUGACCUG | 0.563

Sample 4 — technique: protein binding microarray; molecule type: double-stranded DNA, one strand shown; matrix: in vitro; concentration: not given; relative to: not given; direction: higher = stronger binding
Target: Histone acetyltransferase KAT6A, both winged helices, GST fusion (KAT6A, Homo sapiens, UniProt Q92794, residues 1-181)
Notes: 8-mer, flanks averaged, mean of 2 arrays, mostly near background
Residues (chain): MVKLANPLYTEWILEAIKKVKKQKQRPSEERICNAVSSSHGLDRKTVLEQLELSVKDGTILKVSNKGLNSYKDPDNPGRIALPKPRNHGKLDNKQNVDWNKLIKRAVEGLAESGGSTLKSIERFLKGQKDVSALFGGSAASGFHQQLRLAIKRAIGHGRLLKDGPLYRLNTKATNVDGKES
Strand | E-score
ATGACTAG | -0.126
CACGGGCG | 0.28
CCGGATAC | 0.106
AGCTGTGG | -0.19
CAGGTGTC | -0.026
CCACCTAA | -0.181
ACAATCCT | -0.128
CGTGGCCC | 0.043
CTACAAAA | -0.0685
GCACGCGA | 0.22
GGGTCTTA | 0.0678
CAGATACA | 0.122
GTAGATGA | 0.00061
CCTGTCAA | -0.0943
CTTTTAAC | 0.043
CGATACGC | 0.231

Sample 5 — technique: RNAcompete; molecule type: RNA; matrix: in vitro; concentration: 20 nM; notes: 7-mer, probes averaged, single round; relative to: mean of 7-mers; direction: higher = stronger binding
Target: PABPC1L2, full length, GST fusion (mouse, UniProt A0ABA7IW68)
Strand | 7-mer Z-score
UUGUGCA | -0.307
UUCGCCC | -0.373
UGUUUCA | -0.483
CUCGGUC | -0.358
CUUUUGA | -0.0337
ACUCAGG | -0.0428
GUUUAGU | -0.441
GGUUGUU | -0.42
CGUCUAU | -0.345
AUAAUCA | -0.0337
UACGUUC | -0.383
CCGCCCG | -0.318
CCAUCGA | -0.162
CUGGAAG | 0.191
UCUCCAA | -0.112
UAUCAUU | -0.277
UUAAACC | 0.0805
UGGCGCU | -0.161
GUCAAGC | -0.139
UUCUCAA | -0.32
UGAAUCC | -0.289

Sample 6 — target: CEP164, C-terminal peptide (human); technique: DHFR complementation, deep sequencing; matrix: yeast; relative to: wild type; direction: higher = weaker binding
Notes: single substitutions, model-inferred values
Starting sequence: PDZK1, PDZ domain 2 (human); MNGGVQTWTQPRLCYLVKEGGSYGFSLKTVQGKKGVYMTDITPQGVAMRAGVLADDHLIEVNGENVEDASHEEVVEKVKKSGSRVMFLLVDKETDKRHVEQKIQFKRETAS; partner HNRVKVYRF
Variant | binding free energy change [kcal/mol]
F25D | 1.56
V90W | -0.0981
G20A | 0.186
V46D | 1.56
A110Q | -0.106
S22V | -0.0703
M86C | -0.141
K77T | 0.064
A69G | 0.221
D91I | 0.527
I103A | -0.115
T42M | -0.0558
V52Y | 1.1
K79D | 1.8
K28C | -0.701
Q31V | -0.263
V75A | 1.08
G21A | -0.19
Q10D | 0.209
V5A | -0.109
A54P | -0.181
K79V | 0.0357

Sample 7 — technique: aptamer microarray, sandwich; molecule type: DNA with 2'F-ANA; matrix: in vitro; concentration: 200 nM; together with: Cy3 exosite-II aptamer, 400 nM; direction: higher = stronger binding; strand: GGTTGGTGTGGTTGG
Target: Prothrombin, mature alpha-thrombin (F2, Homo sapiens, UniProt P00734)
Notes: whole 15-mer aptamer, many near background
Modification | mean fluorescence intensity
2'F-ANA at 1 6 8 9 12 14 | 67 a.u.
2'F-ANA at 1 3 5 9 11 12 14 15 | 46.4 a.u.
2'F-ANA at 3 4 8 11 12 13 14 15 | 392 a.u.
2'F-ANA at 1 2 8 9 10 13 | 50.1 a.u.
2'F-ANA at 1 2 3 4 5 6 7 9 10 11 13 15 | 50.2 a.u.
2'F-ANA at 3 4 5 6 12 15 | 212 a.u.
2'F-ANA at 2 4 6 7 8 9 11 12 13 14 | 101 a.u.
2'F-ANA at 1 4 5 6 11 12 13 15 | 64.1 a.u.
2'F-ANA at 1 2 5 6 8 10 11 12 14 15 | 169 a.u.
2'F-ANA at 1 2 4 5 6 7 8 9 11 12 13 | 87.7 a.u.
2'F-ANA at 4 7 8 11 14 15 | 134 a.u.
2'F-ANA at 1 4 5 6 7 13 15 | 51.9 a.u.
2'F-ANA at 2 3 4 9 14 15 | 278 a.u.
2'F-ANA at 3 4 5 8 9 12 13 | 122 a.u.
2'F-ANA at 10 11 13 | 157 a.u.
2'F-ANA at 2 3 4 5 7 9 | 104 a.u.
2'F-ANA at 1 2 3 5 6 7 8 15 | 67.4 a.u.
2'F-ANA at 1 2 3 4 7 9 10 12 13 15 | 75 a.u.
2'F-ANA at 3 7 8 10 11 | 620 a.u.
2'F-ANA at 1 2 6 7 10 13 14 | 89.5 a.u.
2'F-ANA at 1 2 3 4 5 11 12 13 | 71.7 a.u.
2'F-ANA at 1 2 3 4 6 7 13 14 15 | 58.8 a.u.
2'F-ANA at 3 6 7 8 9 10 11 | 482 a.u.
2'F-ANA at 3 8 15 | 1190 a.u.
2'F-ANA at 3 4 5 6 7 9 12 13 14 | 49.4 a.u.

Sample 8 — technique: DHFR PCA, deep sequencing; matrix: yeast; together with: (+)-ABA 0 µM; relative to: wild-type fitted maximum; direction: higher = stronger binding
Target: ABI1, truncated, D143A, DHFR fusion (Arabidopsis thaliana)
Notes: methotrexate growth selection, single substitutions
Starting sequence: PYL1, truncated, DHFR fusion (Arabidopsis thaliana); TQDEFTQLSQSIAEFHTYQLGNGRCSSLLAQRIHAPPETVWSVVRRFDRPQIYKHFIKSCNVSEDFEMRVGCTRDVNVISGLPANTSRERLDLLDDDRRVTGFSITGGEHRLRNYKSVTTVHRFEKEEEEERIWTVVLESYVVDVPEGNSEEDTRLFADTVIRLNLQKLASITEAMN
Variant | relative binding score [%]
F15K | -0.911
A13H | 17.8
E130F | 24.3
Y141E | -8.09
Y18L | -0.225
K168Q | 12.4
D96V | -4.65
F103H | 2.09
T101I | 69.7
G23S | 6.33
E4F | 13.8
L166W | 6.63
W41E | 1.74
N165G | 4.52
D92N | 2.08
R132G | 51.6

Mixed results
Molecule | target | test | system | conditions | scale | measurement | result
PhoQ, residues 284 288 289 292 302 303 ALAMYF | PhoP, residues 12 14 15 18 19 MHTVL (Escherichia coli, UniProt P23836) | Sort-seq, item: YFP reporter | E. coli | PhoQ-PhoP variant library, together with: 10 µM Mg2+ | relative to: high Mg2+ state, higher = stronger signaling | fold induction | 0.424

For quick reference, copied from above (sample 6):
Variant | binding free energy change [kcal/mol]
V46D | 1.56
D91I | 0.527
A69G | 0.221
I103A | -0.115
G21A | -0.19
K77T | 0.064
Q31V | -0.263
V52Y | 1.1
K28C | -0.701
Q10D | 0.209
V90W | -0.0981
F25D | 1.56
T42M | -0.0558
S22V | -0.0703
K79V | 0.0357
K79D | 1.8
M86C | -0.141
V5A | -0.109
